# Results gathered from unrelated publications.
# Numbered parts are unrelated; each lists some results of a single study. Substitutions count along the parent as printed.

# Set 1
# Target: TAR DNA-binding protein 43, full length, His tag (TARDBP, Homo sapiens, UniProt Q13148, residues 1-414)
# Technique: RNA Bind-n-Seq
# Form: RNA
# Matrix: in vitro
# Tested at: 20 nM
# Notes: 6-mer, flanks averaged, single round
# Added: 150 mM LiCl
# Reference: input library
# Reading: higher = stronger binding
Strand,6-mer enrichment (R)
GCCGUC,0.906
CGAUUU,0.904
AGAGGA,1
CAAAAG,0.832
GUCCAA,0.856
UUCCCA,0.938
CGAAGC,0.84
CAGCAA,0.868

# Set 2
# Target: Microphthalmia-associated transcription factor, full length (MITF, Homo sapiens, UniProt O75030-10, residues 1-413)
# Technique: protein-binding microarray
# Form: hairpin DNA
# Matrix: in vitro
# Tested at: not given
# Notes: whole hairpin DNA, median over replicate spots
# Reference: not given
# Reading: higher = stronger binding
Strand,median fluorescence
CACTTAGCACGGGATTTTGGTCCTCCAAAATCCCGTGCTAAGTGACACTC (5mC at 33),12900 a.u.
GAGGCCTAGCACGTGCCGCCTCCTGGCGGCACGTGCTAGGCCTCACACTC,24000 a.u.
CACTTAGCACGTAATTTTGGTCCTCCAAAATTACGTGCTAAGTGACACTC,4440 a.u.
CACTAAGCACGTGATTTTGGTCCTCCAAAATCACGTGCTTAGTGACACTC,26400 a.u.
CACTTAGCGCGTGATTTTGGTCCTCCAAAATCACGCGCTAAGTGACACTC (5mC at 8 36),15000 a.u.
GAGGCCTAGCACGCGCTGCCTCCTGGCAGCGCGTGCTAGGCCTCACACTC (5mC at 30),9970 a.u.
GAGGCCAAGCACGTGCTGCCTCCTGGCAGCACGTGCTTGGCCTCACACTC,24700 a.u.
GAGGCCTAGCAAGTGCTGCCTCCTGGCAGCACTTGCTAGGCCTCACACTC,5300 a.u.

# Set 3
# Target: JDP2, bZIP domain (human)
# Technique: DHFR protein complementation
# Matrix: yeast
# Notes: single substitutions, most at no-binding floor
# Reference: wild-type JUN-FOS pair
# Reading: higher = stronger binding
# Starting sequence: JUN, bZIP domain (human); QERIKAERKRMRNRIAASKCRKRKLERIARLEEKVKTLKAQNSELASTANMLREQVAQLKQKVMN; partner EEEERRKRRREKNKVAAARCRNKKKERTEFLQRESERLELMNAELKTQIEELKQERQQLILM
Change,binding fitness
V56P,-1.04 natural log
A29I,0.278 natural log
T37N,0.375 natural log
Q55S,0.292 natural log
R53A,0.33 natural log
K34T,0.31 natural log
Q55W,0.114 natural log
S43D,0.292 natural log

# Further values, each from its own experiment
Sequence,target,test,system,conditions,quantity,value
STNTLPTEY,"HLA class I histocompatibility antigen, A alpha chain, allele A*80:01 (Homo sapiens, UniProt P04439)",peptide-MHC binding,peptide,concentration not given,binding,inactive
